Values quoted from earlier work, collected from citations in different studies.
Compare with care: the assays were run in different laboratories. Numbers after ± are the reported error.
pyrG: pyrG (Escherichia coli, UniProt P0A7E5)
Chain of UniProt P0A7E5 (whole entry, looked up): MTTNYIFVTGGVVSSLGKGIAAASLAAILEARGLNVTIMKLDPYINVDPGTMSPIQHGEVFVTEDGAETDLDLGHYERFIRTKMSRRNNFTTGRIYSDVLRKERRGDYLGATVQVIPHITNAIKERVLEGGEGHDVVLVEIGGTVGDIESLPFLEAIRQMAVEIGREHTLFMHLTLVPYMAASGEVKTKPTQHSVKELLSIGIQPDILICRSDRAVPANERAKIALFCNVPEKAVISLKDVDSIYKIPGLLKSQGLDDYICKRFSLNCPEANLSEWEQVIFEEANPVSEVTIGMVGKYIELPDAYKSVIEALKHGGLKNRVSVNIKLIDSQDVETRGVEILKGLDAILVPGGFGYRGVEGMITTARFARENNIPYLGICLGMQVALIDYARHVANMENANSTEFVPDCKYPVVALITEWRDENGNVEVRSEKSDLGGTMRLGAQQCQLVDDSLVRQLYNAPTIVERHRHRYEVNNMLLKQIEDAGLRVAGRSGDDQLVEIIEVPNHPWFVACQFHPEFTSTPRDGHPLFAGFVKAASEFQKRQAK
gag-pol: Gag-Pol polyprotein (gag-pol, Human immunodeficiency virus 1, UniProt P12497)
gag-pol integrase: Gag-Pol polyprotein, integrase (gag-pol, Human immunodeficiency virus 1, UniProt P12497)
Chain of UniProt P36544 (whole entry, looked up): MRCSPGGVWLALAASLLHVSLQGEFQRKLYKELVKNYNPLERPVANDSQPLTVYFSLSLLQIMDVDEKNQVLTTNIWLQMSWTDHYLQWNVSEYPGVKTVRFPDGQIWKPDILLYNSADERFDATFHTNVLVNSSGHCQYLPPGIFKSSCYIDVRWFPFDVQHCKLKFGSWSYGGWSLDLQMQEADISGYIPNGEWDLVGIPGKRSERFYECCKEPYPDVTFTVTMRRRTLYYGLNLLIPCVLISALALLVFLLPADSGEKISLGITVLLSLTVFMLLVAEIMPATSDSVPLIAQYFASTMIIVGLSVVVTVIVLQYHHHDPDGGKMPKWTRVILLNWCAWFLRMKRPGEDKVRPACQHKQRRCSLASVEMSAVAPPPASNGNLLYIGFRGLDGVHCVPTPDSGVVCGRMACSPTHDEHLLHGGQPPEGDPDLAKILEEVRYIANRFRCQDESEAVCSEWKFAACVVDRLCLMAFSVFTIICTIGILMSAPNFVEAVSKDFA
Chain of UniProt P25103 (whole entry, looked up): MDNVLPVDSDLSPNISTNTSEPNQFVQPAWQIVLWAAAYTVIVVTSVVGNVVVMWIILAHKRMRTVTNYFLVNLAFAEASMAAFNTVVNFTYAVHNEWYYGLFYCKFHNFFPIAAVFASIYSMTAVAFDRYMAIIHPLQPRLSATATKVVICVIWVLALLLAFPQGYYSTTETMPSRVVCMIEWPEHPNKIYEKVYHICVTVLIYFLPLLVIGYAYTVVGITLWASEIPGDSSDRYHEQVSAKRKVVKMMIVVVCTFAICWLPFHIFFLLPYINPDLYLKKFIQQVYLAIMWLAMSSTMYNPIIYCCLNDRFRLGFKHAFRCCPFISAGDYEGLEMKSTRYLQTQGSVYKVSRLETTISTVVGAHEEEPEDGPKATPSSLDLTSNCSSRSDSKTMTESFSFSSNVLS
Chain of UniProt P22303 (whole entry, looked up): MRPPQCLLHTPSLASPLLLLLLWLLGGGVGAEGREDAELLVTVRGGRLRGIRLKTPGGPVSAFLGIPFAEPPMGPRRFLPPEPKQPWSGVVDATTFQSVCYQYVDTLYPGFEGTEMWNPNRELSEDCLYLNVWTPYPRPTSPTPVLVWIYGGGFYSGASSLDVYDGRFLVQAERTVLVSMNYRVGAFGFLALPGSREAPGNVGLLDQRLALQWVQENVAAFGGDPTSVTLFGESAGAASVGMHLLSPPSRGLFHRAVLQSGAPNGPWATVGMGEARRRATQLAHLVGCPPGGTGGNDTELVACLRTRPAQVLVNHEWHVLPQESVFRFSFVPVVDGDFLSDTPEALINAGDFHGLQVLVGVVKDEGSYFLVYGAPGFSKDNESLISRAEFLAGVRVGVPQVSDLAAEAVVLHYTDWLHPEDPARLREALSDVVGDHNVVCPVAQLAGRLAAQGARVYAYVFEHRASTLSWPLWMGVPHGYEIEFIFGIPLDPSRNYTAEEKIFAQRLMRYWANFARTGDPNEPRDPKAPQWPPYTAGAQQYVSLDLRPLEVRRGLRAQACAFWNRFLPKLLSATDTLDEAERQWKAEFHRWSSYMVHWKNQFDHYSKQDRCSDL
Chain of UniProt P33534 (whole entry, looked up): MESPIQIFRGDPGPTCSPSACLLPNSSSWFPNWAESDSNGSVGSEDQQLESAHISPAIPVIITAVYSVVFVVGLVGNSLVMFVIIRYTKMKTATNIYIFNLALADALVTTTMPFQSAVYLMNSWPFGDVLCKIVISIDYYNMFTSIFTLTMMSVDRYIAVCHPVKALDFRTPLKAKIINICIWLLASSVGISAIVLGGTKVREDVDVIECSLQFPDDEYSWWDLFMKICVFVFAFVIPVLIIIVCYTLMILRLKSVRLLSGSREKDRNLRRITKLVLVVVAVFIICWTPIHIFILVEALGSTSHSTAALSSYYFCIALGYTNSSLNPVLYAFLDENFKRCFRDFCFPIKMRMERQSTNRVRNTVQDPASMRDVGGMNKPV
Chain of UniProt Q9Y6L6 (whole entry, looked up): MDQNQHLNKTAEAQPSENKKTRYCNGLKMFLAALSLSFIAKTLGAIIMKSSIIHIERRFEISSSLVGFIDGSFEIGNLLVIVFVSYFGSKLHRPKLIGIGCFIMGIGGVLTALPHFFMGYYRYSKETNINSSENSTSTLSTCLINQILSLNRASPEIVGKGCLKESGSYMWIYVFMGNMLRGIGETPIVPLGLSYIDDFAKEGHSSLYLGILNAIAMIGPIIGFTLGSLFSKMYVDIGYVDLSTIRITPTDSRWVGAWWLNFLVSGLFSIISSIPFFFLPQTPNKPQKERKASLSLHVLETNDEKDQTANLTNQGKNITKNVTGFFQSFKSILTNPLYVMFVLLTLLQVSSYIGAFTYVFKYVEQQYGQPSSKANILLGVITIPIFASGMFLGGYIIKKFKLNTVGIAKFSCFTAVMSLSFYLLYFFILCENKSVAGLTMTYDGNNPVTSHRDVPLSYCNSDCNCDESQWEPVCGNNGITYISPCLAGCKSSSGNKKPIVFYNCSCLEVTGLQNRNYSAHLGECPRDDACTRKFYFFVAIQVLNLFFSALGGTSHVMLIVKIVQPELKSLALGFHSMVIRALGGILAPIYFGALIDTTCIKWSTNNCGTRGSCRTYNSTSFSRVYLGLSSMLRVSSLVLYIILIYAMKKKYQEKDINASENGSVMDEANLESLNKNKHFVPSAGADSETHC

Compound = O=C(O)/C(=C/c1c(C(=O)O)[nH]c2cc(Cl)cc(Cl)c12)c1ccccc1; target = Glutamate receptor ionotropic, NMDA 1 (Grin1, Rattus norvegicus, UniProt P35439); assay = inhibitor; conditions = historical measurement; quantity = IC50; result = 0.022 µM
Compound = Cc1c(C(=O)NN2CCCCC2)nc(-c2ccc(Cl)cc2Cl)n1-c1ccc(F)cc1; target = CB1 receptor; assay = binding; quantity = Ki; result = 0.052 µM
Compound = Ic1ccccc1CN[C@@H]1C2CCN(CC2)[C@@H]1C(c1ccccc1)c1ccccc1 (racemic); target = Substance-P receptor (TACR1, Homo sapiens, UniProt P25103); assay = inhibitor; conditions = historical reference value; quantity = IC50; result = 0.0036 µM
Compound = O=C(N[C@@H]1CCC2C3Cc4ccc(O)c5c4[C@@]2(CCN3CC2CC2)C1O5)c1cccc(I)c1 (stereo partly shown); target = Kappa-type opioid receptor (Oprk1, Mus musculus, UniProt P33534); quantity = EC50; result = 0.00013 ± 2e-05 µM
Compound = CCCc1nn(C)c2c(=O)[nH]c(-c3cc(S(=O)(=O)N4CCN(C)CC4)ccc3OCC)nc12; target = Solute carrier organic anion transporter family member 1B1 (SLCO1B1, Homo sapiens, UniProt Q9Y6L6); assay = transport, inhibitor; conditions = OATP1B1, literature value, added: Bosentan substrate; quantity = IC50; result = 1.5 µM
Compound = Nc1ccn([C@@H]2O[C@H](COP(=O)(O)OP(=O)(O)OP(=O)(O)O)[C@@H](O)[C@H]2F)c(=O)n1; target = pyrG; assay = enzyme activity, inhibitor; conditions = wild type, added: UTP 0.05 mM; quantity = IC50; result = 109 µM
Compound = COC(=O)[C@@H]1C[C@H](OC(C)=O)C(=O)[C@H]2[C@@]1(C)CC[C@H]1C(=O)O[C@H](c3ccoc3)C[C@]21C; target = kappa opioid receptor D138A; quantity = Ki; result = 0.0175 ± 0.0044 µM
Compound = Nc1ccn([C@@H]2O[C@H](COP(=O)(O)OP(=O)(O)OP(=O)(O)O)[C@@H](O)[C@H]2O)c(=O)n1; target = pyrG; assay = enzyme activity, inhibitor; conditions = wild type, added: UTP 0.05 mM; quantity = IC50; result = 97 µM
Compound = O=c1cc(-c2ccc(O)cc2)oc2cc(O)c(O)c(O)c12; target = SARS-CoV-2 NSP13 helicase; assay = enzyme activity, inhibitor; quantity = IC50; result = 0.86 µM
Compound = O=C(O)C(=O)C=C(O)c1cn(Cc2ccc(F)cc2)c2cc(N3CCCC3)ccc2c1=O; target = gag-pol; assay = concerted integration (full-site); test system = HIV-1; quantity = IC50; result = 0.495 µM
Compound = Cc1ccc[n+](CCCCCCCCCCCC[n+]2cccc(C)c2)c1; target = neuronal nicotinic acetylcholine receptors; assay = nicotine-evoked [3H]-dopamine release, inhibitor; conditions = concentration not given; quantity = IC50; result = 0.002 to 0.005 µM
Compound = CN1CCc2[nH]c3ccccc3c2CC1; target = Neuronal acetylcholine receptor subunit alpha-7 (CHRNA7, Homo sapiens, UniProt P36544); assay = inhibitor; conditions = added: 100 µM acetylcholine; quantity = IC50; result = 6.9 ± 0.5 µM
Compound = COC(=O)C1=CO[C@@H](O[C@@H]2O[C@H](CO)[C@@H](O)[C@H](O)[C@H]2O)[C@@H]2[C@@H](C)[C@@H](O)C[C@H]12; target = acetylcholinesterase; assay = inhibitor; quantity = IC50; result = 3.95 µM
Compound = O=C(NCc1ccc(F)cc1)c1nc(N2CCCCS2(=O)=O)c2cccnc2c1O; target = gag-pol integrase; assay = concerted integration (half-site); test system = HIV-1; quantity = IC50; result = 0.245 µM
Compound = O=C(O)C1=CC(=C(c2ccc(O)c(C(=O)O)c2)c2ccc(O)c(C(=O)O)c2)C=CC1=O; target = HCV NS3 helicase; assay = helicase activity, inhibitor; quantity = IC50; result = 0.3 µM
Compound = CN(C)C(=O)C(=O)N(C)c1nc(C(=O)NCc2ccc(F)cc2)c(O)c2ncccc12; target = gag-pol; assay = concerted integration (full-site); test system = HIV-1; quantity = IC50; result = 0.102 µM
Compound = CCC1=C[C@@H]2Cc3nc4cc(Cl)ccc4c(N)c3[C@H](C1)C2; target = Acetylcholinesterase (ACHE, Homo sapiens, UniProt P22303); quantity = IC50; result = 0.0013 µM
Compound = CCN1C[C@H](C)n2c(c(O)c3c(=O)n(Cc4ccc(F)c(Cl)c4)nc(C(=O)NC)c32)C1=O; target = gag-pol integrase; assay = concerted integration (half-site); test system = HIV-1; quantity = IC50; result = 0.365 µM
Compound = CCNC(=O)c1nn(-c2ccc(Cl)cc2Cl)c(-c2ccc(Cl)cc2)c1C; target = CB1 receptor; assay = binding; quantity = Ki; result = 0.0463 µM

Excerpt of the above:
Compound = COC(=O)[C@@H]1C[C@H](OC(C)=O)C(=O)[C@H]2[C@@]1(C)CC[C@H]1C(=O)O[C@H](c3ccoc3)C[C@]21C; target = kappa opioid receptor D138A; quantity = Ki; result = 0.0175 ± 0.0044 µM
Compound = Nc1ccn([C@@H]2O[C@H](COP(=O)(O)OP(=O)(O)OP(=O)(O)O)[C@@H](O)[C@H]2O)c(=O)n1; target = pyrG; assay = enzyme activity, inhibitor; conditions = wild type, added: UTP 0.05 mM; quantity = IC50; result = 97 µM
